Measured values of several laboratories.
Compare with care: the assays were run in different laboratories.
CDK2: Cyclin-dependent kinase 2 (CDK2, Homo sapiens, UniProt P24941)
CDK2 with cyclin E1: Cyclin-dependent kinase 2, with cyclin E1 (CDK2, Homo sapiens, UniProt P24941)
CDK2 with cyclin A: Cyclin-dependent kinase 2, with cyclin A (CDK2, Homo sapiens, UniProt P24941)

| SMILES | target | test | conditions | how to read | endpoint | value |
| --- | --- | --- | --- | --- | --- | --- |
| C[C@H](NCc1ccc(-c2ccc(C(F)(F)F)cc2)cc1)C(N)=O | CDK2 | cell-free assay, competition with immobilised ligand | 1 µM |  | inhibition | 4% |
| Nc1ccc(/C=C/C(=O)N2CCc3c(oc4c(-c5ccc(F)cc5)cc(-c5ccc(C(=O)N6CCC(F)(F)CC6)cn5)cc34)C2)cn1 | CDK2 | binding, competition with immobilised ligand | 1 µM |  | remaining binding | 97% |
| O=C(CN1CN(c2ccccc2)C2(CCN(C(=O)c3cnc4[nH]ncc4c3)CC2)C1=O)NCC(F)(F)F | CDK2 | inhibitor | concentration not given |  | inhibition | < 50% |
| CC(C)[C@H]1NC(=O)C[C@H]2/C=C/CCSSC[C@@H](NC1=O)C(=O)N[C@H](Cc1cccc3ccccc13)C(=O)NCC(=O)O2 | CDK2 with cyclin E1 | enzyme activity, inhibitor | 10 µM |  | inhibition | -7.6% |
| CN(C)[C@H]1C[C@@]23CC[C@@]4(O2)C(=CC[C@]2(C)[C@@H](c5ccc6ccncc6c5)CC[C@H]24)C=C3[C@@H](O)[C@@H]1O | CDK2 | ATP probe labelling, inhibitor, KiNativ profiling | 1 µM |  | inhibition | 2.1% |
| CS(C)(=O)=Nc1ccc(-c2ccc(-c3nc4cc(O[C@@H]5CO[C@H]6[C@@H]5OC[C@H]6O)[nH]c4cc3F)cc2)cc1 | CDK2 with cyclin A | enzyme activity, inhibitor | 10 µM |  | inhibition | 4% |
| N[C@H](C(=O)N1CCCC1)C1CCN(c2nccc3c(-c4ncc(Cl)cc4Cl)cccc23)CC1 | CDK2 with cyclin A | kinase activity, inhibitor | 10 µM, added: ATP 1 mM |  | inhibition | 2.8% |
| CN(/N=C/c1ccccc1C(=O)O)c1nc(-c2ccccc2Cl)cs1 | CDK2 with cyclin E1 | enzyme activity, inhibitor | 1 µM |  | inhibition | -11.6% |
| O=C1NC(=O)c2c1c1cc(F)c[n+]3c1c1c2c2cc(O)ccc2[n]1[Ru-4]312([N]=C=S)[S+]3CC[S+]1CC[S+]2CC3 (stereo not shown) | CDK2 with cyclin A | enzyme activity | 100 nM, human enzyme, added: 10 µM ATP | reference: untreated | remaining activity | 82% |
| CCOC(=O)[C@](CC)(CCCSCCOCCOCCNC(=O)c1ccc(-c2c3ccc(=N)c(S(=O)(=O)O)c-3oc3c(S(=O)(=O)O)c(N)ccc23)c(C(=O)O)c1)NC(=O)c1ccc(C2CC2)c(Cc2ccc(F)cc2)n1 | CDK2 with cyclin A | enzyme activity, inhibitor | 10 µM |  | inhibition | 5% |

Repeated from above:
| SMILES | target | test | conditions | how to read | endpoint | value |
| --- | --- | --- | --- | --- | --- | --- |
| CN(C)[C@H]1C[C@@]23CC[C@@]4(O2)C(=CC[C@]2(C)[C@@H](c5ccc6ccncc6c5)CC[C@H]24)C=C3[C@@H](O)[C@@H]1O | CDK2 | ATP probe labelling, inhibitor, KiNativ profiling | 1 µM |  | inhibition | 2.1% |
